{"data": "Assay results pooled from the literature", "ribH": "6,7-dimethyl-8-ribityllumazine synthase (ribH, Mycobacterium tuberculosis, UniProt P9WHE9)", "B1": "T4 DNA ligase (1–129); sequence looked up; chain MILKILNEIASIGSTKQKQAILEKNKDNELLKRVYRLTYSRGLQYYIKKWPKPGIATQSFGMLTLTDMLDFIEFTLATRKLTGNAAIEELTGYITDGKKDDVEVLRRVMMRDLECGASVSIANKVWPGL", "B2": "DNA ligase 1 (human, 233–919); sequence looked up; chain TPRKPAVKKEVKEEEPGAPGKEGAAEGPLDPSGYNPAKNNYHPVEDACWKPGQKVPYLAVARTFEKIEEVSARLRMVETLSNLLRSVVALSPPDLLPVLYLSLNHLGPPQQGLELGVGDGVLLKAVAQATGRQLESVRAEAAEKGDVGLVAENSRSTQRLMLPPPPLTASGVFSKFRDIARLTGSASTAKKIDIIKGLFVACRHSEARFIARSLSGRLRLGLAEQSVLAALSQAVSLTPPGQEFPPAMVDAGKGKTAEARKTWLEEQGMILKQTFCEVPDLDRIIPVLLEHGLERLPEHCKLSPGIPLKPMLAHPTRGISEVLKRFEEAAFTCEYKYDGQRAQIHALEGGEVKIFSRNQEDNTGKYPDIISRIPKIKLPSVTSFILDTEAVAWDREKKQIQPFQVLTTRKRKEVDASEIQVQVCLYAFDLIYLNGESLVREPLSRRRQLLRENFVETEGEFVFATSLDTKDIEQIAEFLEQSVKDSCEGLMVKTLDVDATYEIAKRSHNWLKLKKDYLDGVGDTLDLVVIGAYLGRGKRAGRYGGFLLASYDEDSEELQAICKLGTGFSDEELEEHHQSLKALVLPSPRPYVRIDGAVIPDHWLDPSAVWEVKCADLSLSPIYPAARGLVDSDKGISLRFPRFIRVREDKQPEQATTSAQVACLYRKQSQIQNQQGEDSGSDPEDTY", "B3": "α-TTP F169D; sequence looked up; chain MAEARSQPSAGPQLNALPDHSPLLQPGLAALRRRAREAGVPLAPLPLTDSFLLRFLRARDFDLDLAWRLLKNYYKWRAECPEISADLHPRSIIGLLKAGYHGVLRSRDPTGSKVLIYRIAHWDPKVFTAYDVFRVSLITSELIVQEVETQRNGIKAIFDLEGWQFSHADQITPSVAKKIAAVLTDSFPLKVRGIHLINEPVIFHAVFSMIKPFLTEKIKERIHMHGNNYKQSLLQHFPDILPLEYGGEEFSMEDICQEWTNFIMKSEDYLSSISESIQ", "B4": "α-TTP M209D; sequence looked up; chain MAEARSQPSAGPQLNALPDHSPLLQPGLAALRRRAREAGVPLAPLPLTDSFLLRFLRARDFDLDLAWRLLKNYYKWRAECPEISADLHPRSIIGLLKAGYHGVLRSRDPTGSKVLIYRIAHWDPKVFTAYDVFRVSLITSELIVQEVETQRNGIKAIFDLEGWQFSHAFQITPSVAKKIAAVLTDSFPLKVRGIHLINEPVIFHAVFSDIKPFLTEKIKERIHMHGNNYKQSLLQHFPDILPLEYGGEEFSMEDICQEWTNFIMKSEDYLSSISESIQ", "B5": "α-TTP I202D; sequence looked up; chain MAEARSQPSAGPQLNALPDHSPLLQPGLAALRRRAREAGVPLAPLPLTDSFLLRFLRARDFDLDLAWRLLKNYYKWRAECPEISADLHPRSIIGLLKAGYHGVLRSRDPTGSKVLIYRIAHWDPKVFTAYDVFRVSLITSELIVQEVETQRNGIKAIFDLEGWQFSHAFQITPSVAKKIAAVLTDSFPLKVRGIHLINEPVDFHAVFSMIKPFLTEKIKERIHMHGNNYKQSLLQHFPDILPLEYGGEEFSMEDICQEWTNFIMKSEDYLSSISESIQ", "note": "Each line is one published result; not all experiments were run side by side. Numbers after ± are the reported error.", "chain of UniProt P9WHE9 (whole entry, looked up)": "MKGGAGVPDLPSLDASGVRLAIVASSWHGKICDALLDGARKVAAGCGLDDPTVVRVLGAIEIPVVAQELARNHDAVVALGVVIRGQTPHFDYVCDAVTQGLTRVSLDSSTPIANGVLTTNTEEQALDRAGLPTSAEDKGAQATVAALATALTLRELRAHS", "chain of UniProt O54982 (whole entry, looked up)": "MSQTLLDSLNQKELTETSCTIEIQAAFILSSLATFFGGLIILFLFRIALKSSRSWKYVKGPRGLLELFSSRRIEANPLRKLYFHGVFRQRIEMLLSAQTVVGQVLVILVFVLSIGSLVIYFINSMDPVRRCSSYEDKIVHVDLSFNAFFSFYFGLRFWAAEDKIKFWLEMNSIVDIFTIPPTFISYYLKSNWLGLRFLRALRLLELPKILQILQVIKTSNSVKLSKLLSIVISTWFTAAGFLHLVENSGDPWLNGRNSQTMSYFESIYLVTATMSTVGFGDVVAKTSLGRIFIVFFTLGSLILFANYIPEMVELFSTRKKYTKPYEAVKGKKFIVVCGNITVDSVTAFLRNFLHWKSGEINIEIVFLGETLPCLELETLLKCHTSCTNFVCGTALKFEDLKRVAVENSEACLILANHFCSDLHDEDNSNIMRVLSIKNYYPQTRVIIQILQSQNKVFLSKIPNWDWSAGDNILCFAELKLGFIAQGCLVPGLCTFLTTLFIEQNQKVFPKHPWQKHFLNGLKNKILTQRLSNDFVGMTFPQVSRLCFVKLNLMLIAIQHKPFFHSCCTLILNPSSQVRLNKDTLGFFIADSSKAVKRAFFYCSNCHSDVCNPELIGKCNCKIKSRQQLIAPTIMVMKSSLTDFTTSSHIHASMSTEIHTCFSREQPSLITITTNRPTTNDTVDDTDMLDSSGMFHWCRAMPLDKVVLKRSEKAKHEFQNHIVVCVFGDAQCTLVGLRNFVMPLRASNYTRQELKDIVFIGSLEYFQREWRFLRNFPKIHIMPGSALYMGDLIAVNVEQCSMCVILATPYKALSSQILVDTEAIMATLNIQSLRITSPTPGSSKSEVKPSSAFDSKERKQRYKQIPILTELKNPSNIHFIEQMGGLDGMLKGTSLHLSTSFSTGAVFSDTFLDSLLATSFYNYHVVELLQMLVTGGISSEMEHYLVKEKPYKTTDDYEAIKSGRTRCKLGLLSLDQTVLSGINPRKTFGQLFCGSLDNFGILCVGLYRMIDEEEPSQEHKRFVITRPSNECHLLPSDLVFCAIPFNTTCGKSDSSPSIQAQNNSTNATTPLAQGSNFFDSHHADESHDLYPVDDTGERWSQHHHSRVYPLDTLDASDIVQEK"}
{"Substance": "Nc1ncnc2c1ncn2[C@@H]1O[C@H](COP(=O)(O)OP(=O)(O)OP(=O)(O)OP(=O)(O)OC[C@H]2O[C@@H](n3cnc4c(N)ncnc43)[C@H](O)[C@@H]2O)[C@@H](O)[C@H]1O", "tested on": "HEK293T", "assay": "PGC-1α/ERRα reporter gene, agonist, qHTS luciferase", "measurement": "EC50", "result": "13.3 µM"}
{"Substance": "B1 (T4 DNA ligase)", "assay": "DNA binding, fluorescence polarization", "system": "nicked dsDNA probe", "setting": "pH 7.4, 0.1 M NaCl, together with: 15 nM fluorescein-labelled DNA probe", "measurement": "Kd", "result": "138 µM"}
{"Substance": "N=C(N)NCCC[C@@H]1NC(=O)[C@H](CCCNC(=N)N)NC(=O)[C@H](CCCNC(=N)N)NC(=O)[C@H](Cc2ccc3ccccc3c2)NC(=O)[C@H](Cc2ccccc2)NC(=O)[C@H](CCC(N)=O)NC(=O)[C@H](CCCNC(=N)N)NC1=O", "assay": "lipid binding, fluorescence polarization", "system": "small unilamellar vesicles PC/PE/sphingomyelin/cholesterol", "setting": "2 h, room temperature, EC50 as lipid concentration", "measurement": "EC50", "result": "713 ± 76 µM"}
{"Substance": "vimentin", "assay": "binding, OI-RD scanning microscopy", "system": "immobilized peptide on epoxy glass", "setting": "rabbit mAb mixture analyte", "measurement": "Kd", "result": "0.0017 µM"}
{"Substance": "B2 (DNA ligase 1)", "assay": "DNA binding, fluorescence polarization", "system": "nicked dsDNA probe", "setting": "pH 7.4, 0.1 M NaCl, together with: 15 nM fluorescein-labelled DNA probe", "measurement": "Kd", "result": "7.7 µM"}
{"Substance": "B3 (α-TTP F169D)", "assay": "binding, dual polarization interferometry", "system": "immobilized phospholipid bilayer", "setting": "20 °C", "measurement": "Kd", "result": "5.85 ± 0.54 µM"}
{"Substance": "CCOC(=O)C1=C(C)NC2=C(C(=O)CC(C)(C)C2)C1c1ccc(-c2ccccc2)cc1 (stereo not drawn)", "tested on": "HEK293T (HA-TGFBR2-mCherry)", "assay": "cell-surface receptor level, degrader, flow cytometry", "measurement": "IC50", "result": "1.05 µM"}
{"Substance": "B4 (α-TTP M209D)", "assay": "binding, dual polarization interferometry", "system": "immobilized phospholipid bilayer", "setting": "20 °C", "measurement": "Kd", "result": "0.488 µM"}
{"Substance": "O=c1[nH]c(/C=C/C2C=Nc3ccccc32)c([N+](=O)[O-])c(=O)[nH]1 (stereo not drawn)", "tested on": "ribH", "assay": "enzyme activity, inhibitor", "setting": "pH 7.0", "measurement": "Ki", "result": "70 ± 31 µM"}
{"Substance": "B5 (α-TTP I202D)", "assay": "binding, dual polarization interferometry", "system": "immobilized phospholipid bilayer", "setting": "20 °C", "measurement": "Kd", "result": "2.05 µM"}
{"Substance": "CC[N+](CC)(CC)CC", "tested on": "Kcnu1, Slo1 N-terminal chimera (Mus musculus, UniProt O54982)", "assay": "ion current, blocker, cytosolic application", "setting": "pH 8.5, open-channel block, together with: Ca2+ 0", "measurement": "Kb", "result": "110 ± 10 µM"}
{"Substance": "O=c1[nH]c(C=Cc2ccccc2)c([N+](=O)[O-])c(=O)[nH]1", "tested on": "ribH", "assay": "enzyme activity, inhibitor", "setting": "pH 7.0", "measurement": "Ki", "result": "15 ± 7.3 µM"}
{"note": "A few entries again:"}
{"Substance": "B1 (T4 DNA ligase)", "assay": "DNA binding, fluorescence polarization", "system": "nicked dsDNA probe", "setting": "pH 7.4, 0.1 M NaCl, together with: 15 nM fluorescein-labelled DNA probe", "measurement": "Kd", "result": "138 µM"}
{"Substance": "Nc1ncnc2c1ncn2[C@@H]1O[C@H](COP(=O)(O)OP(=O)(O)OP(=O)(O)OP(=O)(O)OC[C@H]2O[C@@H](n3cnc4c(N)ncnc43)[C@H](O)[C@@H]2O)[C@@H](O)[C@H]1O", "tested on": "HEK293T", "assay": "PGC-1α/ERRα reporter gene, agonist, qHTS luciferase", "measurement": "EC50", "result": "13.3 µM"}
